Published values of several laboratories.
A part holds a random share of what one study measured.

Sample 1 — method: protein binding microarray; molecule type: double-stranded DNA, one strand shown; matrix: in vitro; concentration: not given; reference: not given; reading: higher = stronger binding; endpoint: E-score
Target: Histone acetyltransferase KAT6A, winged helix 1, GST fusion (KAT6A, Homo sapiens, UniProt Q92794, residues 1-85)
Notes: 8-mer, flanks averaged, mean of 2 arrays, mostly near background
Target sequence (chain): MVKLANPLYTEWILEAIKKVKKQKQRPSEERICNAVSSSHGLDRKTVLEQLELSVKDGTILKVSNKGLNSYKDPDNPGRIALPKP
CTGGCCGC: 0.1
TCGCAGCA: -0.078
CCTGCCCG: 0.159
CCACTCCG: 0.245
AGTGAATC: -0.277
ACTAAACC: 0.0263
AGAGCCAG: -0.273
TCTCAGCA: -0.252
GCTGTGAA: -0.00303
CCCTAGTA: 0.012
CAAGGTCA: -0.0865
AAGGAAGT: -0.0294
CAACACGG: 0.207
TGGTAAAA: -0.174
GCAACAAC: -0.0865
TGAAATCA: -0.0723
CATCTGCC: 0.0984
ACGGATTG: 0.216
CCCTTTCA: 0.0662
CCGAGGAA: -0.0713
GGAACGAC: -0.0598

Sample 2 — method: universal PBM; molecule type: double-stranded DNA, one strand shown; matrix: in vitro; concentration: not given; reading: higher = stronger binding; endpoint: E-score
Target: Sal-like protein 4, full length isoform B (SALL4, Homo sapiens, UniProt Q9UJQ4-2, residues 1-616)
Notes: 8-mer, flanks averaged, mean of replicates
Target sequence (chain): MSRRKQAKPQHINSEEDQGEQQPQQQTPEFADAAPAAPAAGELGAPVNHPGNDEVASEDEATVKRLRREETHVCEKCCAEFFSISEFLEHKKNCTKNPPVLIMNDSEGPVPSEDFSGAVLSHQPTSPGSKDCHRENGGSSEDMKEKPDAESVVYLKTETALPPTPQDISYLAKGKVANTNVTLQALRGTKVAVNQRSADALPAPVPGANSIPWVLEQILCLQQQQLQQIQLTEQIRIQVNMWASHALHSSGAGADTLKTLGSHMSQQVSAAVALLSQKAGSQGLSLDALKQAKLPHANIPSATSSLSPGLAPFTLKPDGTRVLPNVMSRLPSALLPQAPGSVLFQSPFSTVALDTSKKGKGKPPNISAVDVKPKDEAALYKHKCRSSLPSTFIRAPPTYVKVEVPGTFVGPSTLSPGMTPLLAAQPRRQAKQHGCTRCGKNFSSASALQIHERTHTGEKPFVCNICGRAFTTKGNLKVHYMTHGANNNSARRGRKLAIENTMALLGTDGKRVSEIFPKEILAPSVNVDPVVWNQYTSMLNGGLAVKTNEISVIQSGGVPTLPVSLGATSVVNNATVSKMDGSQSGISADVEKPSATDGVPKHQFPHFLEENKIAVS
AAACGGCC: -0.173
CATGGAAA: 0.262
CACGATCG: -0.0499
CATGAGAG: -0.13
AGGTGAAT: -0.0172
AGGCCAGA: -0.103
CGAATCCG: -0.233
GGAGTGTA: -0.137
ATCTGGTG: -0.0828
AATTACGT: 0.222
ATCTTCCG: 0.00214
ACAGGAGC: -0.0569
CATCGATA: 0.119
ACCCCTCT: -0.308
CAAGCGGC: -0.262
GTTTCCAA: 0.0596
AGTCCGAG: -0.255
CGCAGTCC: -0.278
AAGGCAGG: 0.0488
GATTAAGC: 0.0781

Sample 3 — method: RNA Bind-n-Seq; molecule type: RNA; matrix: in vitro; concentration: 365 nM; reference: no-protein control; reading: higher = stronger binding; endpoint: RBNS enrichment (R)
Target: RNA binding protein fox-1 homolog 2, RRM domain, GST-SBP tag (RBFOX2, Homo sapiens, UniProt O43251-10, residues 100-194)
Notes: natural RNA segment, single round, ends assumed
Shared flanks, not repeated: GGGAGUUCUACAGUCCGACGAUC … UGGAAUUCUCGGGUGCCAA
Residues (chain): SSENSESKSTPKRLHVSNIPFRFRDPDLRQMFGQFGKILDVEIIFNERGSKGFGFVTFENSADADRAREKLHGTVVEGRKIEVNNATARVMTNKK
UCAAUGUUUUAUUCUGAAGUAAACGUUAGCUCUACAUAUAAAUCCUGGAACAGAAAUUGUUUAUAGAGACUACACUAAUUAUUUUAACUGUAUACAUCUGUUUAAUUUGA: 0.281
CUCUUCUGCACAUUUCCAUAUCUAGAGAUGGAUAGUCCUGAACUUGACGUCACACCCACAGGUGAAACAGCCCGAAGUCAAGGCCUUGCUAGUAAAUGGAGCUUUGUACA: 1.23
AAUGAGCUAACCUCAGAGAGAAGCCCUGGAGUCUAAGAUUGUUGUAAAAAUUAAUUUAUUUGUGUUAUCUUGUAUUGACAAAUAAAAAUCUUUACUACUUUCUCAAGCCC: 0.27
AGCUUCCGUGGGACAGAAGCUUUGGGUAGCUCUGAGUGACAGCUGCUUGUAUUCUCGGACCUGGACUCUGACAUGCAGAGAAGAGCUGACCGUCCUGGUGAGGACCACUG: 0.878
GCAGGGGGCAGGGUGGGGCCUGAGAGUGGCUUCAAGUCGGCAGGGUUCUGCUGCCCCUGAUGCUCAUGGGUCUGUCCCGGGGAAAGAGGCAAGCAGGAGGCUGAGCCAGG: 0.685
GCUGGGAACAAGAGCAGCCCACUCUGCAGGAAUGCAACCUGAGCUGCAAACCAGGAGAAAAGGAGACUCAUUUAGGAUCUGAUCUGUAAGUACAUUGGAAAGGAAAGAAA: 0.412
UAAAUUCCCAGAAAUUCAGUGUUUAGACGAGGGAAUUUAAUUCCUAUUUUGUCCAUGUUGGUGAUGUACUGUACUUCCCUUCCUUUUCUCUGCAUCCCCCAUCACCUCAU: 2.77
GGAUGUCUCUCCUUCCUUACUGUGGCUUCUGCAUGCACUUACACUGUACUUGACGGCUGGCCUCCAGGGUCUCUCUUGCUUUGUACUGGUUCCCCUCUUUACCUUCACCA: 12.1
AAAAGCAUGGGACCCUCACAGCAACCAUUCCUGGGAGAUGGGUCCCUUAUAGGUCCAUGACCUGCUCUGUUCAGAGGCCUCUUGGCAGUGUGGCCUGUUUGUGCUGUCCU: 0.349
CUGAUGAGUGCUGAUGGGCUAACCCUACCCUGUACAAGGGCUCAUAAGGCUACUAAGCAUUAGGGCCAAUUAAAGAAUUUUAGUUUCCCUUUCUCAGACAAAUAGCUUUU: 0.276
CACACAGAGGGGAACCGAUUUUUUUUAUCCAAUGUGAAUUAUAAAUGAGAUAAUCCACAGUUAUUCAUUGUGGAGUUGUUGAGACUAUGAAAGACUCAUUGUCUUUGUAU: 0.512
CAGAACUGCCCCCACUGUCCCCCUACCCACCGAUGGAGCCCCCAGAUAGAGCUGGGUGGCCUGUUUCUGCAGCCCUUGGGCAGUUCUCACUCCUAGGAGAGCCAACCUCG: 0.406

Sample 4 — method: RNA Bind-n-Seq; molecule type: RNA; matrix: in vitro; concentration: 200 nM; notes: whole 134-nt RNA, ends assumed; together with: 150 mM KCl; reference: input library; reading: higher = stronger binding; endpoint: log2 enrichment
Target: Ras GTPase-activating protein-binding protein 1, full length (G3BP1, Homo sapiens, UniProt Q13283)
UniProt Q13283, sequence (whole entry, looked up): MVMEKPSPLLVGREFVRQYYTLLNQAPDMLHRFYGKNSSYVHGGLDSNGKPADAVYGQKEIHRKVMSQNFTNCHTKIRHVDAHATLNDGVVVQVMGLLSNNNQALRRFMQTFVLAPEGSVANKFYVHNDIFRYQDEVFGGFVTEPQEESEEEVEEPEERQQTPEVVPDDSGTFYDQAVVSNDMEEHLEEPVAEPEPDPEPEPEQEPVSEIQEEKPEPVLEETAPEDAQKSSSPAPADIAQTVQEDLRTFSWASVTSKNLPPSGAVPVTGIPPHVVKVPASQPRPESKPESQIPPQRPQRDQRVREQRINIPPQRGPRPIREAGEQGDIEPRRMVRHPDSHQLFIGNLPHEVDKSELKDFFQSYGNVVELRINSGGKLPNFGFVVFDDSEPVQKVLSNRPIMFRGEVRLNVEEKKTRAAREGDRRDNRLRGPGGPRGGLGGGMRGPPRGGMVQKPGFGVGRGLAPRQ
Shared flanks, not repeated: GGGAGUUCUACAGUCCGACGAUC … UGGAAUUCUCGGGUGUCAAGG
UGGCCCUGGUGGCAUGGGGGGAGGAAGAGGUGGCCUCAUGGAUCGUGGUGGUCCCGGUGGAAUGUUCAGAGGUGGCCGUGGUGGAGACAG: 0.337
UCAAGUCCUGUGCUACACAUCGUAUGUACCGAAUCGGAAAGGUGGAAAAAAAGGAAAGUAUUAUGUUACGCCGUUCGGAUCUGCACUUCC: -1.36
CCUGUGCUACACAUCGUAUGUACCGAAUCGGGGCCCCCCGGGGCCCCCCGGCCCCCCGGGGAAAGUAUUAUGUUACGCCGUUCGGAUCUG: -0.817
AAGUCCUGUGCUACACAUCGUAUGUACCGAAUCGGGCCCGGGGCCCGGGGCCCGGGAAAGUAUUAUGUUACGCCGUUCGGAUCUGCACUU: -1.11
GCAGGAAGUAAAAACAAAUGGAAAUGCUUCGGAUAGUGGCAGGGGUGGGGGUUGCUAAGGAACGGGUGGGAUGGGAGUGGGUAAAGAGUU: 0.722
CAAGUCCUGUGCUACACAUCGUAUGUACCGAAUCGGGUUUUUGGGAAAGGGAGGGAAAGUAUUAUGUUACGCCGUUCGGAUCUGCACUUC: 0.601
UGGCCCUGGUGGCAUGCGGGGAGGAAGAGGUGGCCUCAUGGAUCGUGGUGGUCCCGGUGGAAUGUUCAGAGGUGGCCGUGGUGGAGGCAG: 0.346
GUCCUGUGCUACACAUCGUAUGUACCGAAUCGGGGCCCCGGGGCCCCGGGGCCCCGGGAAAGUAUUAUGUUACGCCGUUCGGAUCUGCAC: -0.629
UAACUUUAGAGGAGGAUCUGAUGGAUAUGGCAGUGGACGUAGAUUUGGGGAUGGCUAUAAUGGGUAUGGAGGAGGACCUGGAGGUGGCAA: 0.235
UCAAGUCCUGUGCUACACAUCGUAUGUACCGAAUCGGGUUUUUGGGAGGGAGGGAAAGUAUUAUGUUACGCCGUUCGGAUCUGCACUUCC: 0.73

Other studies, line by line
GSAKRRLFGEDPP — score minus score, wild type (human cyclin A2; cyclin docking binding, deep mutational scanning; peptide, yeast cyclin A2-Cln2 system; direction not given): 0

Some of these lines once more (other studies, line by line):
GSAKRRLFGEDPP — score minus score, wild type (human cyclin A2; cyclin docking binding, deep mutational scanning; peptide, yeast cyclin A2-Cln2 system; direction not given): 0
